Results collected from several papers.
Converted amounts (≈) assume the structure as drawn.
Organism: Enterococcus faecalis

`C=C/C=C(\C)CC[C@@H]1C[C@@H](O)CC(=O)O1` gave an MIC of 64 µg/mL (≈ 304 µM) (broth microdilution; KCTC 3511).
`O=C(O)CN(CCN(CC(=O)O)CC(=O)O)CC(=O)O` has an MBC of greater than 2000 µM (OG1RF; 24 h).
The biofilm MIC of `O=C(O)c1ccc(-n2cc(CNc3ccc(Cl)c(C(F)(F)F)c3)c(-c3cccc(F)c3)n2)cc1` is reported as 2 × planktonic MIC (ATCC 29212; 24 h, preformed biofilm).
`CN[C@H](CC(C)C)C(=O)N[C@H]1C(=O)N[C@@H](CC(N)=O)C(=O)N[C@H]2C(=O)N[C@H]3C(=O)N[C@H](C(=O)N[C@H](C(=O)O)c4cc(O)cc(O)c4-c4cc3ccc4O)[C@H](O)c3ccc(c(Cl)c3)Oc3cc2cc(c3O[C@@H]2O[C@H](CO)[C@@H](O)[C@H](O)[C@H]2O[C@H]2C[C@](C)(N)[C@H](O)[C@H](C)O2)Oc2ccc(cc2Cl)[C@H]1O` gave an MIC50 of 2 µg/mL (≈ 1.38 µM) (compound-intermediate; pH 7.0).
The MIC50 of `CN[C@H](CC(C)C)C(=O)N[C@H]1C(=O)N[C@@H](CC(N)=O)C(=O)N[C@H]2C(=O)N[C@H]3C(=O)N[C@H](C(=O)N[C@H](C(=O)O)c4cc(O)cc(O)c4-c4cc3ccc4O)[C@H](O)c3ccc(c(Cl)c3)Oc3cc2cc(c3O[C@@H]2O[C@H](CO)[C@@H](O)[C@H](O)[C@H]2O[C@H]2C[C@](C)(N)[C@H](O)[C@H](C)O2)Oc2ccc(cc2Cl)[C@H]1O` is reported as 1 µg/mL (≈ 0.69 µM) (ATCC 29212; 1 strain).
`Cc1ccc2[nH]nc(-c3nnc(Nc4ccc(Cl)c(Cl)c4)s3)c2c1` gave an MIC of 82 µg/mL (≈ 218 µM) (ATCC 2942).
Under “number of isolates”, `Cc1c2c(nn1C)CSCc1cc(n(C)n1)CSc1cc(c3ccccc3c1)OCCCc1c(C(=O)O)n(C)c3c-2c(Cl)ccc13` is recorded as 17 (broth microdilution MIC; 25 µM).
For `c1ccc(CN(CCN(Cc2ccccn2)Cc2ccccn2)Cc2ccccn2)nc1`, the MBEC was greater than 2000 µM (Calgary Biofilm Device; OG1RF, established biofilm; 24 h).
`Cc1ccc2[nH]nc(-c3nnc(Nc4ccc(C(F)(F)F)cc4)s3)c2c1` gave an MIC of 7.8 µg/mL (≈ 20.8 µM) (ATCC 2942).
The biofilm MIC of `O=C(O)c1ccc(-n2cc(CNc3cc(Br)cc(C(F)(F)F)c3)c(-c3ccc(F)c(F)c3)n2)cc1` is reported as 1 × planktonic MIC (ATCC 29212; 24 h, preformed biofilm).
`CC(=O)NC[C@H]1CN(c2ccc(N3CCOCC3)c(F)c2)C(=O)O1` gave an MIC50 of 2 µg/mL (≈ 5.93 µM) (vancomycin-intermediate, 10 isolates; serum 0%).
The MIC of `Cc1ccc2[nH]nc(-c3nnc(Nc4ccc(F)cc4Cl)s3)c2c1` is reported as 3.2 µg/mL (≈ 8.89 µM) (ATCC 2942).
The MBEC of `O=C(O)c1ccc(-n2cc(CNc3ccc(Br)c(C(F)(F)F)c3)c(-c3cccc(F)c3)n2)cc1` is reported as 8 × MIC (ATCC 29212; biofilm, Calgary device).

For quick reference, copied from above:
Under “number of isolates”, `Cc1c2c(nn1C)CSCc1cc(n(C)n1)CSc1cc(c3ccccc3c1)OCCCc1c(C(=O)O)n(C)c3c-2c(Cl)ccc13` is recorded as 17 (broth microdilution MIC; 25 µM).
